Results collected from several papers.
Parts stem from different laboratories: compare values within a part only. Positions count from the first letter of the parent shown.

Sample 1 — method: RNA Bind-n-Seq; form: RNA; medium: in vitro; concentration: 365 nM; baseline: no-protein control; reading: higher = stronger binding
Target: RNA binding protein fox-1 homolog 2, RRM domain, GST-SBP tag (RBFOX2, Homo sapiens, UniProt O43251-10, residues 100-194)
Notes: natural RNA segment, single round, ends assumed
Residues (chain): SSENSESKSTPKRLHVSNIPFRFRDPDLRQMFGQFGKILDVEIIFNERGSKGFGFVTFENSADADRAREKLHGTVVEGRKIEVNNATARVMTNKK
| Sequence | RBNS enrichment (R) |
| --- | --- |
| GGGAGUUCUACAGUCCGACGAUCAGAACAUUUUGGGAAACACUAUGUUAGAUAGUUCUUUAAGGAGACAAAACGGUAAUGAACAGAUAGCACUGGGGCAGAAUAUGCAUGCAUUUUGUAACGUCCAGUGUGGCUGGAAUUCUCGGGUGCCAA | 31 |
| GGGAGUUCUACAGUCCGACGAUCGGAUCACAGUAUGGGAAUGACUGAUGUGACCUUGAAUGCAGCUUGGUUUGACUGACAUUAAAGCCAGUGUUAAAAACUAAAGCUUAGCAACAAAUGUUUUACUAUUUUUAUGGAAUUCUCGGGUGCCAA | 2.28 |
| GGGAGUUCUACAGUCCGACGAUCCCAAAUAAGCUUGCUGCCAUGGUCUAGGGUGAGGGUGCUGUCCUGUGCAAAUGUUAAGUUGGAUAUCACACUGUAUAUUUGCUGAGUCUCUUUUCCUAUAGGUUUGCAGAUGGAAUUCUCGGGUGCCAA | 0.88 |
| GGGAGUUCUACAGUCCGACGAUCAGCAGCAGGAACAAAGCAGGCUUACUGCUGUCAACACUGCUUAAAAUGCUUUCAUGUCCUAGGUAAAGAAAAAACAUAAUUGCUUGUGAAGCAGUUUCAUGAUAAAUAGUUGGAAUUCUCGGGUGCCAA | 0.33 |
| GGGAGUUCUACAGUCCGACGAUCUUAAGUAAUUGGGACUCUAGCACAUCUUGACCUAGGGUCACUAGAGCUAAGCUUGCUUUGCAGGGCAGACACCUGGGACAGCCUUCCUCCCUCAUGUUUGCUGGGACACUUGGAAUUCUCGGGUGCCAA | 1.23 |
| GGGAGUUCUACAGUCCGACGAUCGAGGUGUCUGAACAAGCUUGGGGAGGGUCUAUAAGGGGUAGGCUCAAAAAAAAAAAAACCCAUUUGCAGAGGCAGUUUUGCCAACACAAGGGCUCUUUCAAGCCGACUUUUGGAAUUCUCGGGUGCCAA | 0.605 |
| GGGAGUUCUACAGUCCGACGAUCUUUCCGAGAUAUUCCGUAGUACAUAUUUAUUUUUAAACAGCAACAAAGAAAUACAGAUAUAUCUUAAAAAAAAAAGCAUUUUGUAUUAAAGAAUUGAAUUCUGAUCUCAAUGGAAUUCUCGGGUGCCAA | 3.01 |
| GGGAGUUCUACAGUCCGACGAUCACCUCAUUCAGAAAAUGUUGGAGUAUGAUCCAGCCAAAAGAAUUACUCUCAGAGAAGCCUUAAAGCAUCCUUUCUUUGACCUUCUGAAGAAAAGUAUAUAGAUCUGUAAUUGGAAUUCUCGGGUGCCAA | 0.405 |

Sample 2 — target: CCND3, cyclin fold, Cln2 fusion (human); method: yeast growth competition, sequencing; medium: yeast; notes: weak parent motif; baseline: not given; reading: higher = stronger binding
Starting sequence: ORC1 docking peptide (human); PRARKRLELGNLG; partner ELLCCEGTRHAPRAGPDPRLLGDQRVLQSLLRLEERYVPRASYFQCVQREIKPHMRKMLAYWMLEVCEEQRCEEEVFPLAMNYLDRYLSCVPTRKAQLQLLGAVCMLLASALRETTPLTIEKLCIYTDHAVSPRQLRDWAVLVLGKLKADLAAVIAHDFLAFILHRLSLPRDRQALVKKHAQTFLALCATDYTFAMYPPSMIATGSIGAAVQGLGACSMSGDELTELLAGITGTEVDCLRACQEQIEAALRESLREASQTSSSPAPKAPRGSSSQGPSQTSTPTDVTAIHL
| Change | normalised enrichment score |
| --- | --- |
| PRARKMLELGNLG [R6M] | 0.119 |
| PDARKRLELGNLG [R2D] | 0.133 |
| PRARKRLEMGNLG [L9M] | 0.188 |
| KRARKRLELGNLG [P1K] | 0.122 |
| PRARKRLALGNLG [E8A] | 0.12 |
| PRARKRLELGNLE [G13E] | 0.131 |
| PRVRKRLELGNLG [A3V] | 0.0545 |
| PRKRKRLELGNLG [A3K] | 0.159 |
| PRARKQLELGNLG [R6Q] | 0.138 |
| PRARKRLELGNPG [L12P] | 0.14 |
| PRARSRLELGNLG [K5S] | 0.11 |
| PRARKDLELGNLG [R6D] | 0.16 |
| PRARTRLELGNLG [K5T] | 0.06 |
| HRARKRLELGNLG [P1H] | 0.124 |
| PRARKRLELGNMG [L12M] | 0.16 |
| PRARKRLENGNLG [L9N] | 0.0949 |
| PRARKHLELGNLG [R6H] | 0.115 |
| TRARKRLELGNLG [P1T] | 0.109 |
| PRSRKRLELGNLG [A3S] | 0.137 |
| PRARKRLELGNIG [L12I] | 0.0164 |
| PRARIRLELGNLG [K5I] | 0.164 |
| PRARKRLEYGNLG [L9Y] | 0.141 |
| PRARKRLELGNFG [L12F] | 0.0764 |
| PRARKSLELGNLG [R6S] | 0.122 |
| PRARKRLCLGNLG [E8C] | 0.087 |

Sample 3 — method: protein binding microarray; form: double-stranded DNA, one strand shown; medium: in vitro; concentration: not given; baseline: not given; reading: higher = stronger binding
Target: Histone acetyltransferase KAT6A, winged helix 2, GST fusion (KAT6A, Homo sapiens, UniProt Q92794, residues 85-181)
Notes: 8-mer, flanks averaged, mean of 2 arrays, mostly near background
Construct (chain): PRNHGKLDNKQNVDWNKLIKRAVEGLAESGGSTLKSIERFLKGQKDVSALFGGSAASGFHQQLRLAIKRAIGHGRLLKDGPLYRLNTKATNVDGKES
| Sequence | E-score |
| --- | --- |
| TACTAGGA | 0.00583 |
| CTTTTATA | 0.00652 |
| AATTCCAT | -0.0207 |
| AGAAACCC | 0.0849 |
| AAAGTAAC | -0.09 |
| ATCCTAGC | -0.0437 |
| ACTGGGCA | 0.00746 |
| AAAAAGGT | 0.0252 |
| CTAAAGAG | -0.0238 |
| CGATACGA | -0.0609 |
| ACGAGCAA | -0.0645 |
| ATCGTAAG | -0.0634 |
| CACGGCGA | 0.25 |
| GCAGTAGC | 0.0392 |
| GCTGCCAC | 0.12 |
| ACATCTCG | -0.096 |
| CATGATTC | -0.0816 |
| GCCAGGAA | -0.00831 |
| AAGTTGAA | 0.0415 |
| AACGGGGT | -0.0862 |
| CTTCAGAC | -0.0718 |
| AGATCTAC | 0.0186 |

Sample 4 — method: protein-binding microarray; form: double-stranded DNA, one strand shown; medium: in vitro; concentration: 940 nM top; notes: 60-bp whole probe; together with: salmon DNA 0.4 mg/ml; baseline: random background probes; reading: higher = stronger binding; shared flanks, not repeated: GCCTAGCAC … GTCTTGATTCGCTTGACGCTGCTG
Target: Interferon regulatory factor 5, full length, phosphomimetic (IRF5, Homo sapiens, UniProt Q13568-2, residues 1-514, S451D/S453D/S456D/S462D)
| Sequence | fitted relative affinity [z-score] |
| --- | --- |
| TTAGAACTGTGTCTCGATTAGTGCTAG | 1.08 |
| TCATATATATTGTTAGTACTGTGCTAG | 0.307 |
| TCCTCTGTCATTTTCTCTTAGTGCTAG | 1.9 |
| CCAGGAAAAGGGATTCAGTTGTGCTAG | 0.119 |
| TTAGGACTTGGACTGGGTTAGTGCTAG | -0.334 |
| TCAAATATATATATTATACTGTGCTAG | -0.011 |
| TCACATTTTTTTTTTCAACTGTGCTAG | 1.77 |
| GACGGTTTCGACCCTGGGGACGTGCTA | 6.23 |
| GACGATTTCGGTTTTCGAGACGTGCTA | 2.13 |
| TTTTTTTTATTTATAAATTAGTGCTAG | 0.163 |
| GACGGTCTCGGTCTGGGGACGTGCTAG | 3.33 |
| TCAATCATTGTTTTCAGTTTGTGCTAG | 0.93 |
| TTAGGTATCTGGACTGGGTTAGTGCTA | 0.39 |
| TTAGGACTGCTACTGTTTTAGTGCTAG | -0.365 |
| TTAGAGATCGGGTTTCGATTAGTGCTA | 4.85 |
| GCCGGTCTCCTTATCCTGACGTGCTAG | 0.317 |
| CTCCTTTTAATTTTTAACGAGTGCTAG | 0.583 |
| GACGATTTCGGGATTGGAGACGTGCTA | 0.264 |
| ATTTTTTTTAGTGGATGAAAGTGCTAG | 0.523 |

For quick reference, copied from above (sample 3):
| Sequence | E-score |
| --- | --- |
| TACTAGGA | 0.00583 |
| CTTTTATA | 0.00652 |
| AATTCCAT | -0.0207 |
| AGAAACCC | 0.0849 |
| AAAGTAAC | -0.09 |
| ATCCTAGC | -0.0437 |
| ACTGGGCA | 0.00746 |
| AAAAAGGT | 0.0252 |
| CTAAAGAG | -0.0238 |
| CGATACGA | -0.0609 |
